Assay results collected from several papers.
Protocols differ between the studies behind these lines. “And” joins repeats or separate records; there may be more than shown. ± marks the error that the study gave.
Sequence of UniProt P08069 (whole entry, looked up): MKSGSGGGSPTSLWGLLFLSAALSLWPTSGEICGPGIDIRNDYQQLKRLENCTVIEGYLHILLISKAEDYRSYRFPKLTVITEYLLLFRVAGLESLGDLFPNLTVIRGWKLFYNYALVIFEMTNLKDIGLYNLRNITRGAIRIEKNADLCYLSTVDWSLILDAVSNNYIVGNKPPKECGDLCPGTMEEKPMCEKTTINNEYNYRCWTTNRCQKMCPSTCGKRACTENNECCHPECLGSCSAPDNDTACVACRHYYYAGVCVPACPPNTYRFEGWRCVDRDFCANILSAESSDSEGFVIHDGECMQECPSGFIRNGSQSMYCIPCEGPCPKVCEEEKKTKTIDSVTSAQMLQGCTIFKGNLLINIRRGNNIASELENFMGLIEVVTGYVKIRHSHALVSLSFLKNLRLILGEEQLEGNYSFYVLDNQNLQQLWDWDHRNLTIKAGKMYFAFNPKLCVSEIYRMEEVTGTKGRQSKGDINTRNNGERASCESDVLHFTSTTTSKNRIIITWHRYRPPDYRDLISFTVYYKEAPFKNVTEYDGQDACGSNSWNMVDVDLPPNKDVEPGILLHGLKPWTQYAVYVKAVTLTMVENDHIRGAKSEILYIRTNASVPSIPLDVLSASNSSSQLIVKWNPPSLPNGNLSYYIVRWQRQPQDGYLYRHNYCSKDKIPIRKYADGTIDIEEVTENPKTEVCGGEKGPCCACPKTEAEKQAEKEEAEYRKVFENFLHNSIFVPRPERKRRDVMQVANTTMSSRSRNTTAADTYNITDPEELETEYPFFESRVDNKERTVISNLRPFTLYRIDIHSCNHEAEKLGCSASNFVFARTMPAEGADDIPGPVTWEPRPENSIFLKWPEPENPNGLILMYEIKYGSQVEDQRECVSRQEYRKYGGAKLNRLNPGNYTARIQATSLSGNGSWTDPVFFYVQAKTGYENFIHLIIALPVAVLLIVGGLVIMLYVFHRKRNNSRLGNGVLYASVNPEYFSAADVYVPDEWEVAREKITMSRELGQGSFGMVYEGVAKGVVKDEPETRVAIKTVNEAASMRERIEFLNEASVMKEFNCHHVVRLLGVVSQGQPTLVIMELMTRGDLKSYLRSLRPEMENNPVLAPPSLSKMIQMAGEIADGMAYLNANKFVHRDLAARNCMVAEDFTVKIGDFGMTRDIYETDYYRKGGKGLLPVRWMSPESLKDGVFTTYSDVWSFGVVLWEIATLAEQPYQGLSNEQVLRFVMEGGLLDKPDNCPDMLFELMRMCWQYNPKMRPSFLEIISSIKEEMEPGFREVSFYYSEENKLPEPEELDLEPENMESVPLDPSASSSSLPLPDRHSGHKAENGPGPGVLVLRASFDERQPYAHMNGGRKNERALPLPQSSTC

| Structure (SMILES) | tested on | assay | test system | setting | how to read | quantity | result |
| --- | --- | --- | --- | --- | --- | --- | --- |
| Cc1ncsc1-c1ccc(C(C)NC(=O)C2CC(O)CN2C(=O)C(NC(=O)CCCCCCCCCCN2CCCC(Nc3ncc(Cl)c(Nc4ccccc4S(=O)(=O)C(C)C)n3)C2)C(C)(C)C)cc1 (stereo not drawn) | 22Rv1 | RNA-seq, item: SFR1 mRNA |  | concentration not given | reference: DMSO | log2 fold change | -1.58 |
| CCCC[C@H](NC(=O)COCCOCCNC(=O)CN1CCN(CC(=O)O)CCN(CC(=O)O)CC1)C(=O)N[C@H]1CC(=O)NCCCC[C@@H](C(N)=O)NC(=O)[C@H](Cc2c[nH]c3ccccc23)NC(=O)[C@H](CCCNC(=N)N)NC(=O)[C@@H](Cc2ccccc2)NC(=O)[C@H](Cc2c[nH]cn2)NC1=O [technetium-99m labelled] |  |  | C57 mouse, brain | intravenous, 0.037 MBq, 0.5 h |  | tissue uptake | 0.16 ± 0.05 %ID/g |
| CCN(C(=O)c1cc(F)ccc1Oc1nncnc1N1CCC2(C1)CN([C@H](CCCN(C)CCOC)C(C)C)C2)C(C)C | TE-671 |  | muscle | 72 h |  | GI50 | > 10 µM |
| CCCC[C@H](NC(=O)CCCCCCCNC(=O)CN1CCN(CC(=O)O)CCN(CC(=O)O)CC1)C(=O)N[C@H]1CC(=O)NCCCC[C@@H](C(N)=O)NC(=O)[C@H](Cc2c[nH]c3ccccc23)NC(=O)[C@H](CCCNC(=N)N)NC(=O)[C@@H](Cc2ccccc2)NC(=O)[C@H](Cc2c[nH]cn2)NC1=O [technetium-99m labelled] |  |  | C57 mouse, muscle | intravenous, 0.037 MBq, 2 h |  | tissue uptake | 0.01 ± 0.01 %ID/g |
| CNS(=O)(=O)Nc1nccc(Cc2c(C)c3ccc(Oc4ncccc4F)cc3oc2=O)c1F | REH | cell viability, CellTiter-Glo |  | 7 days |  | IC50 | > 1 µM |
| CN(C)C(=O)c1ccnc(N2Cc3cn(Cc4ccc(F)cc4F)nc3C2)n1 |  |  | mouse, hippocampal slice, Schaffer collaterals | dose not given, interstimulus interval 500 | reference: second over first response | paired-pulse ratio | 1.2 and 1.11 and 1.23 and 1.05 and 1.19 and 1.49 |
| CN1CCCNC(=O)c2cccc(c2)C(=O)NCCCN(C)CCCNc2cccc3c2C(=O)c2cccc(c2C3=O)NCCC1 | SAS | RNA-Seq, item: TPP2 mRNA |  | 1 µM, 6 h | reference: untreated cells | log2 fold change | -0.662 |
| Nc1ncc(-c2cc(-c3cnn(CC(F)(F)F)c3)ncc2F)nc1C(=O)NC1CNCC(F)C1 (stereo not drawn) | PRKCI | KINOMEscan |  | 1 µM | reference: DMSO control | remaining binding | 100% |
| Cn1ncc2cc(-c3cncc(Cl)c3N3CCC4(CCNC4=O)CC3)ccc21 | LS174T | gene expression, microarray, item: CA9 mRNA |  | concentration not given, 24 h | reference: untreated cells | log2 fold change | 3.39 |
| COC1CN([C@H]2CC[C@H]([C@@]3(C)Oc4c(Cl)cc(C(=O)NCc5c(SC)cc(C)[nH]c5=O)c(C)c4O3)CC2)C1 |  | RNA-seq, item: N4BP3 | human, whole blood | dose not given, 24 h | reference: pretreatment baseline | log2 fold change | 2.12 |
| CC(C)C[C@@H](NC(=O)[C@@H](CC(C)C)NC(=O)[C@@H](CC(=O)O)NC(=O)[C@@H](CC(C)C)NC(=O)[C@@H](CC(C)C)NC(=O)[C@@H](CC(C)C)NC(=O)[C@H](NC(=O)[C@@H](CC(=O)O)NC(=O)[C@H](NC(=O)[C@H]1CCCN1C(=O)[C@@H](Cc1ccccc1)NC(=O)[C@@H](CC(C)C)NC(=O)[C@@H](CC(C)C)NC(=O)[C@@H](CC(=O)O)NC(=O)[C@@H](CC(C)C)NC(=O)[C@@H](Cc1ccc(O)cc1)NC(=O)[C@@H](C)NC(=O)[C@@H](CCCNC(=N)N)NC(=O)[C@@H](Cc1c[nH]c2ccccc12)NC(=O)[C@H]1CCCN1C(=O)[C@@H](CC(N)=O)NC(=O)[C@@H](CCC(N)=O)NC(=O)[C@@H](CC(=O)O)NC(=O)[C@@H](CC(=O)O)NC(=O)[C@@H](CSC1CC(=O)N(CCNC(=O)CN2CCN(CC(=O)O)CCN(CC(=O)O)CC2)C1=O)NC(=O)[C@@H](C)N)[C@H](C)O)[C@H](C)O)C(=O)N[C@H](Cc1c[nH]c2ccccc12)C(=O)O (stereo partly drawn) [fluorine-18 labelled] |  |  | male nude mice, LNCaP xenograft, tumor | intravenous, 4 h |  | tissue uptake | 4.41 %ID/g |
| Cc1nn(-c2cccc(N)c2)c(=O)c2cnc(Nc3ccc(N4CCNCC4)cc3)nc12 | Insulin-like growth factor 1 receptor (IGF1R, Homo sapiens, UniProt P08069) | kinase activity, inhibitor, SelectScreen kinase profiling |  |  |  | IC50 | > 10 µM |
| c1ccc(-c2n[nH]cc2-c2ccnc3ccccc23)nc1 | RIM15 (Candida albicans) | kinase binding, MIB/MS competition | Candida albicans lysate | 1 µM | reference: DMSO | log2 fold change | 0.24 |
| C=C1CC[C@H](OCCCNC(=O)CCOCCOCCOCCOCCOCCOCCOCCOCCOCCOCCOCCOCCOCCOCCOCCOCCOCCOCCOCCOCCOCCOCCOCCOCCOCCOCCOCCOCCOCCOCCOCCOCCOCCOCCOCCOCCNC(=O)CCN2C(=O)CC(SC[C@H](NC(=O)[C@H](Cc3ccccc3)NC(=O)[C@H](CC(N)=O)NC(=O)[C@H](Cc3c[nH]cn3)NC(=O)[C@@H](NC(=O)[C@H](CC(=O)O)NC(=O)[C@H](CCC(N)=O)NC(=O)[C@H](CC(C)C)NC(=O)[C@H](CCCCN)NC(=O)[C@H](CCCCN)NC(=O)[C@H](CCCNC(=N)N)NC(=O)[C@H](CC(C)C)NC(=O)[C@H](Cc3c[nH]c4ccccc34)NC(=O)[C@H](CCC(=O)O)NC(=O)[C@@H](NC(=O)[C@H](CCCNC(=N)N)NC(=O)[C@H](CCC(=O)O)NC(=O)[C@H](CCSC)NC(=O)[C@H](CO)NC(=O)[C@H](CC(N)=O)NC(=O)[C@H](CC(C)C)NC(=O)[C@H](Cc3c[nH]cn3)NC(=O)[C@H](CCCCN)NC(=O)CNC(=O)[C@H](CC(C)C)NC(=O)[C@H](CC(N)=O)NC(=O)[C@H](Cc3c[nH]cn3)NC(=O)[C@H](CCSC)NC(=O)[C@H](CC(C)C)NC(=O)[C@H](CCC(N)=O)NC(=O)[C@@H](NC(=O)[C@H](CCC(=O)O)NC(=O)[C@H](CO)NC(=O)[C@@H](NC(=O)[C@@H](N)CO)C(C)C)[C@@H](C)CC)C(C)C)C(C)C)C(=O)O)C2=O)C/C1=C/C=C1\CCC[C@]2(C)[C@@H]([C@H](C)CCCC(C)(C)O)CC[C@@H]12 (stereo partly drawn) |  |  | male Sprague-Dawley rat, plasma | subcutaneous, 100 µg/kg, single dose |  | Cmax | 43.7 ng/mL |
| C=CC(=O)Nc1cccc(Cn2ncc3cnc(Nc4cnn(CCOC)c4)nc32)c1 | human ERK2 | KINOMEscan |  | 100 nM | reference: control | binding | 86% |

A few entries again:
| Structure (SMILES) | tested on | assay | test system | setting | how to read | quantity | result |
| --- | --- | --- | --- | --- | --- | --- | --- |
| CNS(=O)(=O)Nc1nccc(Cc2c(C)c3ccc(Oc4ncccc4F)cc3oc2=O)c1F | REH | cell viability, CellTiter-Glo |  | 7 days |  | IC50 | > 1 µM |
| Nc1ncc(-c2cc(-c3cnn(CC(F)(F)F)c3)ncc2F)nc1C(=O)NC1CNCC(F)C1 (stereo not drawn) | PRKCI | KINOMEscan |  | 1 µM | reference: DMSO control | remaining binding | 100% |
